Measured values pooled from the literature.
Every numbered part comes from another study and shows a few of its results, in no order. Several values in a cell are separate wells, animals, samples, runs or records.
Chain of UniProt Q13470 (whole entry, looked up): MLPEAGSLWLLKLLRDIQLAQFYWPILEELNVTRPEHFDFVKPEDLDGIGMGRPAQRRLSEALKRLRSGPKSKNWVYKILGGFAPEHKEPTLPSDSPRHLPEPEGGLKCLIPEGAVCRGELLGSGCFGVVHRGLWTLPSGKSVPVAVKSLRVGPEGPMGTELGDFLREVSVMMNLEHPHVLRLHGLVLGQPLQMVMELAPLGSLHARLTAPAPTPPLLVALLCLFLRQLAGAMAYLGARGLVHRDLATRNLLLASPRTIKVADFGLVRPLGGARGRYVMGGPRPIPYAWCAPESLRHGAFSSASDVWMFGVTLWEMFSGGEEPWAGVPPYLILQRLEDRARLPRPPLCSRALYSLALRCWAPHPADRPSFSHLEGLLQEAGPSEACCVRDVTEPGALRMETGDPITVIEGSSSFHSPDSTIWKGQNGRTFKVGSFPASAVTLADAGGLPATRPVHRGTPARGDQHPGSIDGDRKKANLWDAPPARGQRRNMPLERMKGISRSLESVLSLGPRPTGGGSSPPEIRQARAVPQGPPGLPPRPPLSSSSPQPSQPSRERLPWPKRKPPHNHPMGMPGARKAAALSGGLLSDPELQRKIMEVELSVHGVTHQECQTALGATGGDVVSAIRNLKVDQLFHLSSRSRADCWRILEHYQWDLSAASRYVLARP
Chain of UniProt O60674 (whole entry, looked up): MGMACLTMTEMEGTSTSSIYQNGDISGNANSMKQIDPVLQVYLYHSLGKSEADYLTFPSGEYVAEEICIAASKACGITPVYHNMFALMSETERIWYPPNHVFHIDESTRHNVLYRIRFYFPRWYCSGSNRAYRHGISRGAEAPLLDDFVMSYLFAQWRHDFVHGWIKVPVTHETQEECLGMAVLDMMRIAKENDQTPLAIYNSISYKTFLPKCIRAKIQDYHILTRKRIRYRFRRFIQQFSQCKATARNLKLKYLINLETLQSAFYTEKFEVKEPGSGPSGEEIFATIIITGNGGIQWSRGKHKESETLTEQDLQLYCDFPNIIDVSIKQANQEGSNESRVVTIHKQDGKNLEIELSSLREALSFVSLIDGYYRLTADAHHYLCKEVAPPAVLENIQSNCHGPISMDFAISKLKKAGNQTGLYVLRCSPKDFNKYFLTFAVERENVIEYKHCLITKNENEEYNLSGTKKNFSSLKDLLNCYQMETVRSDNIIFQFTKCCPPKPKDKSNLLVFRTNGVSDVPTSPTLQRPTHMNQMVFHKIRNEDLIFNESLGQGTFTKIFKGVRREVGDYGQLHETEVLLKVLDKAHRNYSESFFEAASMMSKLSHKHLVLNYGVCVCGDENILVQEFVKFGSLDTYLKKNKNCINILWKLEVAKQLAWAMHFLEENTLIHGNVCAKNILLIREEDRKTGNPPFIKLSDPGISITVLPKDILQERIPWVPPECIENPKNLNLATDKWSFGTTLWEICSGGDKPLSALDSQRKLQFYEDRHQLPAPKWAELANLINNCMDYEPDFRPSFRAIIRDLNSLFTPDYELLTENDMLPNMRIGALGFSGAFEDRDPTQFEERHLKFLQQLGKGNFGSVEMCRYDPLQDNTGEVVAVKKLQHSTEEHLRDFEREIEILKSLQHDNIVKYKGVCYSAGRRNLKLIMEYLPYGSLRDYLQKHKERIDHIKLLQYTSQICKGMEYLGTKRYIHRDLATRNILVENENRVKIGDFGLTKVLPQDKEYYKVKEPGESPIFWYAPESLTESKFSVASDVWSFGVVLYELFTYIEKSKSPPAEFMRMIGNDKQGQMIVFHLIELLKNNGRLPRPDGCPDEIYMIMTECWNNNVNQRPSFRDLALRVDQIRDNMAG
Chain of UniProt O15075 (whole entry, looked up): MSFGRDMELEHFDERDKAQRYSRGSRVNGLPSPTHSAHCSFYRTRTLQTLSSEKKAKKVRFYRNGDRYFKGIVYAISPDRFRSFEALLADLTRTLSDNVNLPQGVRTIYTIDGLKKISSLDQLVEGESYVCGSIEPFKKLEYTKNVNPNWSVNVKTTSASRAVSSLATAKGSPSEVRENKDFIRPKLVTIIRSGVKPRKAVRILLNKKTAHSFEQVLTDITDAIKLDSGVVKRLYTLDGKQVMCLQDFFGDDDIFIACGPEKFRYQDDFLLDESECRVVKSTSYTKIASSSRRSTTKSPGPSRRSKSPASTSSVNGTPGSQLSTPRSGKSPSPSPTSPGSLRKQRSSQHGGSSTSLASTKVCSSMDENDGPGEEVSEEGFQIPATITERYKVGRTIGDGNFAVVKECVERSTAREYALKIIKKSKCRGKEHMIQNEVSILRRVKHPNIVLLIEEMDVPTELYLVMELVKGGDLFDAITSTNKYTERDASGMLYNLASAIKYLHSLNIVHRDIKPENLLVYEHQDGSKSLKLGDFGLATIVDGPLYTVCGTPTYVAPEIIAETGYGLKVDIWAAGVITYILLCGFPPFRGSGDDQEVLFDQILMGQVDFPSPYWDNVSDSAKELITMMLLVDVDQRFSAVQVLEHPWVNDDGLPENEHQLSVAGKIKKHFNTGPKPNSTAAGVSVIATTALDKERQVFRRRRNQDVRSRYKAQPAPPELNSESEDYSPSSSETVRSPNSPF
Chain of UniProt P29317 (whole entry, looked up): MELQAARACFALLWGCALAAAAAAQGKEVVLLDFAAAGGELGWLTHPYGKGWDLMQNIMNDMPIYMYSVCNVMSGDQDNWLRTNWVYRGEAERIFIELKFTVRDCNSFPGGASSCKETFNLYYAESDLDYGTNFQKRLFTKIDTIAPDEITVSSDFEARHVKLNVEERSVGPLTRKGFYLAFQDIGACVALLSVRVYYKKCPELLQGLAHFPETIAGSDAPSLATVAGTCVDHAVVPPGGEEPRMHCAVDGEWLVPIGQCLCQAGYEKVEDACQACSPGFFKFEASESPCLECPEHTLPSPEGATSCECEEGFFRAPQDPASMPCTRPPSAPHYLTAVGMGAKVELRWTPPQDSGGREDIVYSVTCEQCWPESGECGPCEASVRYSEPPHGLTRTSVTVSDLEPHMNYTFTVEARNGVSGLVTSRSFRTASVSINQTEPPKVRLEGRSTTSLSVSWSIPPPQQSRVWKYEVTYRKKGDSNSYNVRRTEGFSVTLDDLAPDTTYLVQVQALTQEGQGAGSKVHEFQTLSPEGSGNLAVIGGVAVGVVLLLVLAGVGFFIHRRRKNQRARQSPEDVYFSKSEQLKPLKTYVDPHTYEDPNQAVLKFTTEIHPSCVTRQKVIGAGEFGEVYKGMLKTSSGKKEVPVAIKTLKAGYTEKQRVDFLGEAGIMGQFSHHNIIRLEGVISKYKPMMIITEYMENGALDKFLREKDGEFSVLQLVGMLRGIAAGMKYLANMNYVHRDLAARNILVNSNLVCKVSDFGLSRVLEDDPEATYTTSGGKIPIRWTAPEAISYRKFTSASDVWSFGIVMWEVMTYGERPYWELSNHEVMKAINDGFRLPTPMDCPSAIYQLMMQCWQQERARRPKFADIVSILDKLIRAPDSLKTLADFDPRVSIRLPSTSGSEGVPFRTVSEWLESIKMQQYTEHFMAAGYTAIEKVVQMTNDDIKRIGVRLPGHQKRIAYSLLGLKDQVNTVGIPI
Chain of UniProt Q13188 (whole entry, looked up): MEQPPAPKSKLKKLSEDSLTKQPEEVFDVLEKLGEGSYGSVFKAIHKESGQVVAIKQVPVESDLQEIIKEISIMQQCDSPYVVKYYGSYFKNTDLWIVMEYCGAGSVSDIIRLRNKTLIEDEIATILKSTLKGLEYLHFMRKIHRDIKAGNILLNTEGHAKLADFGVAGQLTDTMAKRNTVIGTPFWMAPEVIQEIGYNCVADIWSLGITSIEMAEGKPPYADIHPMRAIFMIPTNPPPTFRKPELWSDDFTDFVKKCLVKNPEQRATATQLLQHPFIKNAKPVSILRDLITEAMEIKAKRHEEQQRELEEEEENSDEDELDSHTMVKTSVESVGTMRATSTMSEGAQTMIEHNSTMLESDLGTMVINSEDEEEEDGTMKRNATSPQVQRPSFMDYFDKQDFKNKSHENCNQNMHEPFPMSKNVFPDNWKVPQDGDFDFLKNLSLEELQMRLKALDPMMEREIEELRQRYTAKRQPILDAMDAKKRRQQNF

Series 1 — cell line: mouse MPNST tumor cells; technique: high-content immunofluorescence imaging; refers to: nuclear SOX9; tested at: 10 µM; time: 12 h; setting: mean of 2 replicates; baseline: DMSO control; direction: higher = more nuclear SOX9
SMILES	nuclear SOX9 intensity
Nc1ncnc(Nc2ccc(OCc3ccccc3)c(Cl)c2)c1/C=N/OCCN1CCOCC1	184 % of DMSO
Cc1cccc(C)c1NC(=O)C1CCCCN1C (stereo not shown)	92.6 % of DMSO
CC(CC(=O)OC(C)(C)C)NC(=O)C1=NOC(C(O)(C(F)(F)F)C(F)(F)F)C1 (stereo not shown)	126 % of DMSO
CC(N)CCCC(C)(C)O (stereo not shown)	109 % of DMSO
COc1cc(CN(CCN)C(=O)c2cccs2)ccc1OCc1ccccc1	99.9 % of DMSO
CC(C)c1nc(CN(C)C(=O)N[C@H](C(=O)N[C@@H](Cc2ccccc2)C[C@H](O)[C@H](Cc2ccccc2)NC(=O)OCc2cncs2)C(C)C)cs1	116 % of DMSO
CCCCC1C(=O)N(c2ccccc2)N(c2ccccc2)C1=O	101 % of DMSO and 92.6 % of DMSO

Series 2 — species: human; matrix: microsomes or S9; tested at: 2 µM; time: 0.5 h
SMILES	remaining compound [%]
Cc1ccc(S(=O)(=O)N(CC(=O)c2ccccc2)c2nc3nc(C)cc(C)n3n2)cc1	88.1
Cc1nn(C)cc1-c1nn(-c2ccccc2)c(-c2cn(C)nc2C)c1C	74
CCOC(=O)Cn1cnc2c1c(=O)n(C)c(=O)n2C	2.05
CC(=O)N1N=C(c2ccc(C)cc2)OC1c1ccc(C(C)C)cc1 (stereo not shown)	19.7
COc1ccc(Cl)cc1NC(=O)N1Cc2c(sc3c2CCCC3)-n2cccc2C1c1cccc(F)c1 (stereo not shown)	49.2

Series 3 — read-out: enzyme activity; mode: inhibitor; tested at: 0.5 µM; baseline: control
Target: Serine/threonine-protein kinase Nek2 (NEK2, Homo sapiens, UniProt P51955)
Target sequence (P51955 1-445): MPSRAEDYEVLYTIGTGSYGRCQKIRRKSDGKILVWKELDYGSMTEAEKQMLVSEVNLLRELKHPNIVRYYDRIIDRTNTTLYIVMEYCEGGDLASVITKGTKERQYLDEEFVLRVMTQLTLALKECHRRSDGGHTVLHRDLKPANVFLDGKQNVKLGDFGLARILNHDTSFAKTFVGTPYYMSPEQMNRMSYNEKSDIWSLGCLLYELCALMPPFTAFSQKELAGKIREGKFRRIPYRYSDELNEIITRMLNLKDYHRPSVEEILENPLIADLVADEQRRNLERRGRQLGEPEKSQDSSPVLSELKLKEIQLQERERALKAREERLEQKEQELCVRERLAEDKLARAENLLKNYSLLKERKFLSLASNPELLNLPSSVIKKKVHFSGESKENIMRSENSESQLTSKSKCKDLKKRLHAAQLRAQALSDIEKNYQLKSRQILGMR
SMILES	remaining activity
O=c1c2ccccc2[nH]c(=S)n1CCN1CCC(=C(c2ccc(F)cc2)c2ccc(F)cc2)CC1	100%
Cc1ccc(Nc2nccc(N(C)c3ccc4c(C)n(C)nc4c3)n2)cc1S(N)(=O)=O	110%
CCOC(=O)c1c(C)[nH]c(/C=C2\C(=O)Nc3ccccc32)c1C	91.4%
C#Cc1cccc(Nc2ncnc3cc(OCCOC)c(OCCOC)cc23)c1	100%
O=C(Nc1cccc(Nc2cc(Nc3cccc(C(F)(F)F)c3)ncn2)c1)C1CC1	99.5%
O=C1NC(=O)C(c2cn(CCCO)c3ncccc23)=C1c1cnccn1	97.5%
CNC(=O)c1cc(Oc2ccc(NC(=O)Nc3ccc(Cl)c(C(F)(F)F)c3)cc2)ccn1	99.3%
Nc1ccc2ncnc(NCCc3ccc(Oc4ccccc4)cc3)c2c1	90%
CN(C)c1ccc(C=C2C(=O)Nc3ccccc32)cc1	98.4%
Cn1c2ccccc2c2c3c(c4c5ccccc5n(CCC#N)c4c21)CNC3=O	89.9%
Oc1ccc(-c2nc(-c3ccncc3)c(-c3ccc(F)cc3)[nH]2)cc1	101%
O=S(=O)(c1cccc2cnccc12)N1CCCNCC1	92.3%
Cc1nc(-c2ccccc2)c(-c2ccncc2)o1	116%
O=C(O)c1ccc2c3c1cccc3c(=O)n1c3ccccc3nc21	109%
COc1ccc(C(=O)Nc2sc3c(c2C(N)=O)CCCC3)cc1OC	95.4%

Series 4 — read-out: cell-free assay; technique: competition with immobilised ligand; tested at: 1 µM
Compound: COc1ccc2c(c1)O[C@H](c1ccc(OC)c(OC)c1)C[C@@H]2NC(=O)C1(c2ccc3c(c2)OC(F)(F)O3)CC1
target	remaining binding [%]
Serine/threonine-protein kinase DCLK1 (DCLK1, Homo sapiens, UniProt O15075)	100
Tyrosine-protein kinase JAK2, JH1 (JAK2, Homo sapiens, UniProt O60674)	98
Serine/threonine-protein kinase 3 (STK3, Homo sapiens, UniProt Q13188)	100
Receptor-type tyrosine-protein kinase FLT3 (FLT3, Homo sapiens, UniProt P36888, F691L/ITD)	87
Serine/threonine-protein kinase 4 (STK4, Homo sapiens, UniProt Q13043)	95
Serine/threonine-protein kinase TNNI3K (TNNI3K, Homo sapiens, UniProt Q59H18)	100
Non-receptor tyrosine-protein kinase TNK1 (TNK1, Homo sapiens, UniProt Q13470)	97
Ephrin type-A receptor 2 (EPHA2, Homo sapiens, UniProt P29317)	94
Dual specificity tyrosine-phosphorylation-regulated kinase 1A (DYRK1A, Homo sapiens, UniProt Q13627)	100
Ephrin type-B receptor 6 (EPHB6, Homo sapiens, UniProt O15197)	85

Some of these lines once more (series 1):
SMILES	nuclear SOX9 intensity
CC(CC(=O)OC(C)(C)C)NC(=O)C1=NOC(C(O)(C(F)(F)F)C(F)(F)F)C1 (stereo not shown)	126 % of DMSO
CC(N)CCCC(C)(C)O (stereo not shown)	109 % of DMSO
COc1cc(CN(CCN)C(=O)c2cccs2)ccc1OCc1ccccc1	99.9 % of DMSO
CC(C)c1nc(CN(C)C(=O)N[C@H](C(=O)N[C@@H](Cc2ccccc2)C[C@H](O)[C@H](Cc2ccccc2)NC(=O)OCc2cncs2)C(C)C)cs1	116 % of DMSO
CCCCC1C(=O)N(c2ccccc2)N(c2ccccc2)C1=O	101 % of DMSO and 92.6 % of DMSO
